Measurements of several laboratories.
Parts stem from different laboratories: compare values within a part only.
Chain of UniProt P42684 (whole entry, looked up): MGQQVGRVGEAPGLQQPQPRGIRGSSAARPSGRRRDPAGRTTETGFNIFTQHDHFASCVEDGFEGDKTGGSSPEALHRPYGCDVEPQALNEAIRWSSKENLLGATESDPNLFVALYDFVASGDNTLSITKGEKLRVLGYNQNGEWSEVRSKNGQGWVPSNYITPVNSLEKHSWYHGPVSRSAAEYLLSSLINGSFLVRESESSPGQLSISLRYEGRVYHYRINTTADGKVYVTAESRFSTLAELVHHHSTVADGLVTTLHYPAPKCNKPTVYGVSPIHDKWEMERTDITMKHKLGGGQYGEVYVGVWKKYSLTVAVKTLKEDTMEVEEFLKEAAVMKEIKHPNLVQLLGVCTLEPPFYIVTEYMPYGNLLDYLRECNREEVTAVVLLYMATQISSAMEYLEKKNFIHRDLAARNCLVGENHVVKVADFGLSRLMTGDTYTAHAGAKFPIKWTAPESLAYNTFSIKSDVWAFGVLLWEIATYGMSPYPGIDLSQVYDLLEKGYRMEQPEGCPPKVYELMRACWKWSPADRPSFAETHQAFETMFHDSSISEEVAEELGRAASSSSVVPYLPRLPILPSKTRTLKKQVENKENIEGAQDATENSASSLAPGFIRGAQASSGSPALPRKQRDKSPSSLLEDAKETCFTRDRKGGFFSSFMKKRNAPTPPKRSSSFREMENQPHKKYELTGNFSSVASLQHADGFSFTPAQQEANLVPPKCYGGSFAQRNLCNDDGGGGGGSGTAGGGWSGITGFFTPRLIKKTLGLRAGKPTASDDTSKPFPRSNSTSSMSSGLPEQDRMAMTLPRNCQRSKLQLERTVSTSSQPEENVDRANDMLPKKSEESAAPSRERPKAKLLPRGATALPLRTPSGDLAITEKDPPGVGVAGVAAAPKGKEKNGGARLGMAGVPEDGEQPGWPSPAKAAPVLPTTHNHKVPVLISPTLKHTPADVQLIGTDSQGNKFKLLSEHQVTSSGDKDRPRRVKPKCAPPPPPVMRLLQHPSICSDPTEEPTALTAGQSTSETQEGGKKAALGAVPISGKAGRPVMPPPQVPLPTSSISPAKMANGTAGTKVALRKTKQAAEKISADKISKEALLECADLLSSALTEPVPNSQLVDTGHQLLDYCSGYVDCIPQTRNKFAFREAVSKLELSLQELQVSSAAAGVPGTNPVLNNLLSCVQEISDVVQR
Chain of UniProt O14730 (whole entry, looked up): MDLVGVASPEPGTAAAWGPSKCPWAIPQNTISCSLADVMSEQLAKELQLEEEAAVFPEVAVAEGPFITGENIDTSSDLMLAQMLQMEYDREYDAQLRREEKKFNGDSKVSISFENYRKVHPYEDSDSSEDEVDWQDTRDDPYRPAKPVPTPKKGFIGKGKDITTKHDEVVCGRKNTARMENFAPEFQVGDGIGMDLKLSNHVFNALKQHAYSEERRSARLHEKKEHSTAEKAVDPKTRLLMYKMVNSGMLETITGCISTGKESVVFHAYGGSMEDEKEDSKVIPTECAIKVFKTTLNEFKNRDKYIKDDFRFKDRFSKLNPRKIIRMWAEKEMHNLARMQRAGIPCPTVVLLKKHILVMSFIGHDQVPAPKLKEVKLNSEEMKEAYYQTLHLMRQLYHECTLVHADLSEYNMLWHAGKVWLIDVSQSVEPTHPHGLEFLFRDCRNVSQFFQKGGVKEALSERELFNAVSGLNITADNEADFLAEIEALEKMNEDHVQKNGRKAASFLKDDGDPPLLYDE
Chain of UniProt Q16566 (whole entry, looked up): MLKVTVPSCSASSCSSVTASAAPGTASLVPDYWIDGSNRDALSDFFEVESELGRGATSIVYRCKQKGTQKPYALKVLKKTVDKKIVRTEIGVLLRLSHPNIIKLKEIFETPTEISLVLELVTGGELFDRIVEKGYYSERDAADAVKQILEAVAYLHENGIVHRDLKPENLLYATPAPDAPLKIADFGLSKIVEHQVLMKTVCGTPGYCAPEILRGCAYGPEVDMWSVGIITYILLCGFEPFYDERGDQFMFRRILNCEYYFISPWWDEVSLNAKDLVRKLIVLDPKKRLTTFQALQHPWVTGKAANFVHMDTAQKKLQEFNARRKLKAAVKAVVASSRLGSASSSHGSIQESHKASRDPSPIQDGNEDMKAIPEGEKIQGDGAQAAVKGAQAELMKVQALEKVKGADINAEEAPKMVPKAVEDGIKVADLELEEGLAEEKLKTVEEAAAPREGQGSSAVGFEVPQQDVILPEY
Chain of UniProt Q96RR4 (whole entry, looked up): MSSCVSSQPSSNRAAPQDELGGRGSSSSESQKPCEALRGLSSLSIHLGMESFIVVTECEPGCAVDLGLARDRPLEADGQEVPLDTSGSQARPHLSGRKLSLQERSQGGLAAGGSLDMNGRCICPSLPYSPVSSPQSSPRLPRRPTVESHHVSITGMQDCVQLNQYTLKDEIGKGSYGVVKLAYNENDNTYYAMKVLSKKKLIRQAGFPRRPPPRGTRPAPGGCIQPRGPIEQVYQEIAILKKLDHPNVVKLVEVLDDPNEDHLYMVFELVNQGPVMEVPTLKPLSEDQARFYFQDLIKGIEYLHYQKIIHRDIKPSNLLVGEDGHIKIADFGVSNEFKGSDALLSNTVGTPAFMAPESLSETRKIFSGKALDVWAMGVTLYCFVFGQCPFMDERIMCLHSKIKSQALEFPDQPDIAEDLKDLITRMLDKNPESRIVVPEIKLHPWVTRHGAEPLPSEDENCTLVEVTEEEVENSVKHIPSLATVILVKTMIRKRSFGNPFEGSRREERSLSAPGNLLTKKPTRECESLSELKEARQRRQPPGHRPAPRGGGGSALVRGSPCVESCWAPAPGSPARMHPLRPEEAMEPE
Chain of UniProt Q96J92 (whole entry, looked up): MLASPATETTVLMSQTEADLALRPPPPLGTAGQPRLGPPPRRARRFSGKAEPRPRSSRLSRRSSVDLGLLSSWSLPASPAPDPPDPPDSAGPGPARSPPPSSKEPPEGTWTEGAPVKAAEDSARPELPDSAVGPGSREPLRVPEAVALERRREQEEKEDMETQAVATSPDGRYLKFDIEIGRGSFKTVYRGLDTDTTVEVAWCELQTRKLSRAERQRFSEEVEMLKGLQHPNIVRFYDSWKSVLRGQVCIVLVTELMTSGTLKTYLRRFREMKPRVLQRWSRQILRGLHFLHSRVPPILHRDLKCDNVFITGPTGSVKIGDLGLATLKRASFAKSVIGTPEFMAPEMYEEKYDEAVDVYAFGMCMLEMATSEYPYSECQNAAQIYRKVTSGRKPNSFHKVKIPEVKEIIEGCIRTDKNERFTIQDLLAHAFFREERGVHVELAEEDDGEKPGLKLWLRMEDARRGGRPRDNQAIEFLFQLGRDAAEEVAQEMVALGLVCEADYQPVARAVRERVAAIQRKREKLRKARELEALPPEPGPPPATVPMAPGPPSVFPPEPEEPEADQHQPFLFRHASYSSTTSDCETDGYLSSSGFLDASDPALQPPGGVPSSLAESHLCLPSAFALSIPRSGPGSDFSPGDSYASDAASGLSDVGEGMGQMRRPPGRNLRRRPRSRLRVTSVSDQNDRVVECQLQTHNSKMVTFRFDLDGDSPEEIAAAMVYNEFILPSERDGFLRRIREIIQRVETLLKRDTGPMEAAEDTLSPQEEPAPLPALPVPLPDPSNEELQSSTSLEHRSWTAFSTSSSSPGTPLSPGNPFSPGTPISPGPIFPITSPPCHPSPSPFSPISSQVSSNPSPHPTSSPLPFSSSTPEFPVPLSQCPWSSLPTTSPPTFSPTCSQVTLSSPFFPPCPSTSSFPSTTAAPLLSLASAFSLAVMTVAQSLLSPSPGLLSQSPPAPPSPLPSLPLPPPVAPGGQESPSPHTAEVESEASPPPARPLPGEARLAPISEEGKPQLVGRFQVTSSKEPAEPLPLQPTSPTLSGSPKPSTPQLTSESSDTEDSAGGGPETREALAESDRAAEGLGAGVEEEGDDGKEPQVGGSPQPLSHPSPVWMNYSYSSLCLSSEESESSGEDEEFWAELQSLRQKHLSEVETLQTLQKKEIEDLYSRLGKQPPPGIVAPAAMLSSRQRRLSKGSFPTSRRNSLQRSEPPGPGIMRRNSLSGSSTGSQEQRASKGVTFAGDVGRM

Sample 1
Organism: Sarcocystis neurona
Read-out: parasite activity
Concentration: 10 µM
Time: 96 h
Compound	activity class
Cc1onc(-c2ccccc2)c1-c1ccc(S(N)(=O)=O)cc1	inactive
C[C@@H]1C[C@H]2[C@@H]3C[C@H](F)C4=CC(=O)C(Cl)=C[C@]4(C)[C@@]3(F)[C@@H](O)C[C@]2(C)[C@@]1(O)C(=O)CO	inactive
CC(=O)O[C@@]12CO[C@@H]1C[C@H](O)[C@@]1(C)C(=O)[C@H](O)C3=C(C)[C@@H](OC(=O)[C@H](O)[C@@H](NC(=O)OC(C)(C)C)c4ccccc4)C[C@@](O)([C@@H](OC(=O)c4ccccc4)[C@H]21)C3(C)C	inactive
CC/C(=C(\c1ccccc1)c1ccc(OCCN(C)C)cc1)c1ccccc1	inactive
c1cnc(N2CCN(Cc3ccc4c(c3)OCO4)CC2)nc1	inactive
CC[N+](C)(C)c1cccc(O)c1	inactive
NS(=O)(=O)c1cc2c(cc1Cl)N=CNS2(=O)=O	inactive
c1ccc(-c2ccc(C(c3ccccc3)n3ccnc3)cc2)cc1 (stereo not drawn)	inactive
CO[C@@]1(NC(=O)Cc2cccs2)C(=O)N2C(C(=O)O)=C(COC(N)=O)CS[C@@H]21	inactive
CC(=O)OCC(=O)[C@@]1(O)CC[C@H]2[C@@H]3CCC4=CC(=O)C=C[C@]4(C)[C@H]3[C@@H](O)C[C@@]21C	inactive
CCCCCCCCCCC[C@@H](C[C@@H]1OC(=O)[C@H]1CCCCCC)OC(=O)[C@H](CC(C)C)NC=O	inactive
COC(=O)C1=C(C)NC(C)=C(C(=O)OC(C)C)C1c1cccc2nonc12 (stereo not drawn)	inactive

Sample 2
SMILES: CN([C@@H]1CCc2c(CC(=O)O)c3cc(S(C)(=O)=O)ccc3n2C1)S(=O)(=O)c1ccc(F)cc1
Concentration: 1 µM
target	read-out	action	technique	baseline	remaining binding [%]
WNK4 (Homo sapiens, UniProt Q96J92)	cell-free assay		competition with immobilised ligand		100
HIPK3 (Homo sapiens, UniProt Q9H422)	cell-free assay		competition with immobilised ligand		68
PDGFRB (Homo sapiens, UniProt P09619)	cell-free assay		competition with immobilised ligand		86
FLT3 (Homo sapiens, UniProt P36888)	cell-free assay		competition with immobilised ligand		100
CSNK1E (Homo sapiens, UniProt P49674)	cell-free assay		competition with immobilised ligand		96
RIOK3 (Homo sapiens, UniProt O14730)	cell-free assay		competition with immobilised ligand		94
RIPK4 (Homo sapiens, UniProt P57078)	cell-free assay		competition with immobilised ligand		75
RET (Homo sapiens, UniProt P07949, M918T)	cell-free assay		competition with immobilised ligand		100
SIK1 (Homo sapiens, UniProt P57059)		binder	KINOMEscan competition binding	DMSO	87
ABL2 (Homo sapiens, UniProt P42684)	cell-free assay		competition with immobilised ligand		100
Tyrosine-protein kinase JAK3, JH1 (JAK3, Homo sapiens, UniProt P52333)	cell-free assay		competition with immobilised ligand		100
DSTYK (Homo sapiens, UniProt Q6XUX3)	cell-free assay		competition with immobilised ligand		77
STK39 (Homo sapiens, UniProt Q9UEW8)	cell-free assay		competition with immobilised ligand		86
DDR2 (Homo sapiens, UniProt Q16832)	cell-free assay		competition with immobilised ligand		88
ERBB4 (Homo sapiens, UniProt Q15303)	cell-free assay		competition with immobilised ligand		100
CAMKK2 (Homo sapiens, UniProt Q96RR4)	cell-free assay		competition with immobilised ligand		100
CAMK4 (Homo sapiens, UniProt Q16566)	cell-free assay		competition with immobilised ligand		87

Sample 3
Target: MAP/microtubule affinity-regulating kinase 3 (MARK3, Homo sapiens, UniProt P27448)
Chain of UniProt P27448 (whole entry, looked up): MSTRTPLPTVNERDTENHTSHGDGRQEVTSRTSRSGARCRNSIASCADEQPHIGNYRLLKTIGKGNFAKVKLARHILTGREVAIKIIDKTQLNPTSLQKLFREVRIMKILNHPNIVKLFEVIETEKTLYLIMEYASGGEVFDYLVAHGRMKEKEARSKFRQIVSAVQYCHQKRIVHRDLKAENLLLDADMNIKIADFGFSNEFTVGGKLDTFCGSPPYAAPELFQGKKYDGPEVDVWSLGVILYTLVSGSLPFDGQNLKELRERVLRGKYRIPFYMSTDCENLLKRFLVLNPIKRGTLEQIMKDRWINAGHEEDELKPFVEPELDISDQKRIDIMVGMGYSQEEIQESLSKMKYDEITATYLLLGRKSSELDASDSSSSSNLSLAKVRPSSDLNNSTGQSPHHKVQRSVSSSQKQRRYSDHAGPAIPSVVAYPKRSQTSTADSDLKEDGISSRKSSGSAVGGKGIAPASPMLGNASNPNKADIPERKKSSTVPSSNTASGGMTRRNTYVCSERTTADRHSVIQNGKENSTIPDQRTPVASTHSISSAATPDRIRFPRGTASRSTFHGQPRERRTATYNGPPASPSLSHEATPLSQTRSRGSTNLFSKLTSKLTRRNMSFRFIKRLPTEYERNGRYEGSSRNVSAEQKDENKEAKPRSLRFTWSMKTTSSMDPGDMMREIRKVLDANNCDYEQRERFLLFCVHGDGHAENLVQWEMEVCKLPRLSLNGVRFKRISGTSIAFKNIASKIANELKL
Read-out: enzyme activity
Action: inhibitor
Concentration: 0.5 µM
Baseline: control
Compound	remaining activity [%]
O=C1NC(=O)c2c1c1c3ccccc3[nH]c1c1[nH]c3cc(Br)ccc3c21	57.3
O=C1Cc2c([nH]c3ccc(Br)cc23)-c2ccccc2N1	76.8
O=c1cc(N2CCOCC2)oc2c(-c3ccccc3)cccc12	95.4
O=C1Nc2ccccc2/C1=C\c1c(Cl)[nH]c2ccccc12	104
Cc1ccc(S(=O)(=O)/C=C/C#N)cc1	100
O=Nc1c(-c2c(O)[nH]c3cc(Br)ccc23)[nH]c2ccccc12	67
c1ccc2c(-c3ccncc3)c[nH]c2c1	98
COc1cccc(-c2cc(=O)c3ccccc3o2)c1N	86.7
CCCCc1c(-c2ccc(OC)cc2)[nH]c2nccnc12	91.2
CCCNC(=O)Nc1ccc(Oc2ncnc3cc(OC)c(OC)cc23)cc1Cl	95.3
c1ccc(-c2n[nH]c3c2oc2ccccc23)cc1	96.5
N#Cc1cnc2cnc(NCc3cccnc3)cc2c1Nc1ccc(F)c(Cl)c1	101
CN1CCN(c2ccc3nc(-c4c(N)c5c(F)cccc5[nH]c4=O)[nH]c3c2)CC1	36.5
COc1ccc2c(c1)c(C1=C(c3c[nH]c4ccccc34)C(=O)NC1=O)cn2CCCN(C)C	92.2
O=C1Nc2ccc(Br)cc2/C1=C/c1cc2c([nH]1)CCCC2	84.9
Oc1cccc(-c2nc(N3CCOCC3)c3oc4ncccc4c3n2)c1	97.4
O=C1NC(=O)c2c1c1c3ccccc3[nH]c1n1cncc21	29.8
CN(C)S(=O)(=O)c1ccc2c(c1)/C(=C/c1cc3c([nH]1)CCCC3)C(=O)N2	68.9
O=C(c1cc2cc(O)ccc2[nH]1)c1cc2cc(O)ccc2[nH]1	84.4
Cc1cc(Nc2cc(N3CCN(C)CC3)nc(Sc3ccc(NC(=O)C4CC4)cc3)n2)[nH]n1	96.9

Sample 4
Cell line: mouse MPNST tumor cells
Technique: high-content immunofluorescence imaging
Measured: nuclear SOX9
Concentration: 10 µM
Time: 12 h
Notes: mean of 2 replicates
Baseline: DMSO control
Reading: higher = more nuclear SOX9
SMILES	nuclear SOX9 intensity
Nc1nccc(-c2ccc3noc(-c4ccc(Cl)cc4)c3c2)n1	106 % of DMSO
COc1ncc2cc(C(=O)Nc3cc(C(=O)NCc4cccc(Cl)c4)ccc3Cl)c(=O)[nH]c2n1	123 % of DMSO
N[C@@H](Cn1ccc(=O)n(Cc2ccccc2C(=O)O)c1=O)C(=O)O	97 % of DMSO
Nc1cc(C(Cl)=C(Cl)Cl)c(S(N)(=O)=O)cc1S(N)(=O)=O	94.9 % of DMSO
Cc1cccc(N(C)C(=S)Oc2ccc3ccccc3c2)c1	121 % of DMSO
N=C(N)NCCC[C@H](NC(=O)CC1(CC(=O)N2CCN(C3c4ccccc4NC(=O)c4ccccc43)CC2)CCCC1)C(=O)NCCn1c(=O)n(-c2ccccc2)n(-c2ccccc2)c1=O (stereo partly drawn)	109 % of DMSO
CC(=O)NC(CC(=O)O)C(=O)NC(CCC(=O)O)C(=O)O (stereo not drawn)	98.8 % of DMSO
CC(C)n1nc(-c2cc3cc(O)ccc3[nH]2)c2c(N)ncnc21	170 % of DMSO
O=C(c1ccccc1)c1ccc2n1CCC2C(=O)O (stereo not drawn)	104 % of DMSO
CC[C@H]1OC(=O)[C@H](C)[C@@H](O[C@H]2C[C@@](C)(OC)[C@@H](O)[C@H](C)O2)[C@H](C)[C@@H](O[C@@H]2O[C@H](C)C[C@H](N(C)C)[C@H]2O)[C@](C)(O)C[C@@H](C)/C(=N\OCOCCOC)[C@H](C)[C@@H](O)[C@]1(C)O	126 % of DMSO
CN1CCCCC1CCN1c2ccccc2Sc2ccc([S+](C)[O-])cc21 (stereo not drawn)	150 % of DMSO

A few entries again (sample 3):
Compound	remaining activity [%]
CCCCc1c(-c2ccc(OC)cc2)[nH]c2nccnc12	91.2
CN1CCN(c2ccc3nc(-c4c(N)c5c(F)cccc5[nH]c4=O)[nH]c3c2)CC1	36.5
Oc1cccc(-c2nc(N3CCOCC3)c3oc4ncccc4c3n2)c1	97.4
